# Measurements gathered from unrelated publications.
# A part holds a random share of what one study measured.

# Set 1 — method: RNA Bind-n-Seq; molecule type: RNA; matrix: in vitro; tested at: 20 nM; notes: 6-mer, flanks averaged, single round; together with: 150 mM LiCl; baseline: input library; reading: higher = stronger binding
# Target: TAR DNA-binding protein 43, full length, His tag (TARDBP, Homo sapiens, UniProt Q13148, residues 1-414)
Sequence,6-mer enrichment (R)
CGGGCU,1
CCGCUC,0.909
CAGCGC,0.94
GUAAUU,0.99
CCCAUG,1.02
CAGUUU,1.02
GUCCUC,0.897
UGCUUU,1.11
UUCGGC,0.922
GGGUGC,1.28
UAACAA,1.09
CAUACC,0.867
AUAGCG,0.921
UCAUCA,0.818
AAACUA,0.836
CAUCAU,0.865
CGUUGU,1.06
CAAACG,0.792
ACUAGG,0.886
CCCUUU,1.24
UGAAGC,0.938
UCUGUU,1.05

# Set 2 — method: universal PBM; molecule type: double-stranded DNA, one strand shown; matrix: in vitro; tested at: not given; reading: higher = stronger binding
# Target: Sal-like protein 4, full length isoform B (SALL4, Homo sapiens, UniProt Q9UJQ4-2, residues 1-616)
# Notes: 8-mer, flanks averaged, mean of replicates
Sequence,E-score
AAGAGCTT,-0.158
GGTCAACA,0.0679
CCTTGCCG,-0.29
GAAGGCTC,-0.194
AGGCTACA,-0.0869
ATGGCCAC,-0.212
CACCAATG,-0.134
CGGAAATA,0.231
CCGCGCGA,-0.225
ATATCCTC,0.174
AGAAGAAG,-0.0891
GCCTACCC,-0.211
CTAACGGC,-0.0514
AATAAGGT,0.169
CGCGCCAC,-0.161
GACGTTCC,-0.133
ATCCACAG,0.0309
GATGAGCA,0.0486
CTGATTAA,0.182
AGAGCTGA,-0.131
TCTCTTCA,-0.0167
ATCGCTGA,0.0463
ATAACCAG,0.248
ATGGCGAC,-0.0554
ATTGTGCC,0.0246

# Set 3 — method: RNA Bind-n-Seq; molecule type: RNA; matrix: in vitro; tested at: 365 nM; baseline: no-protein control; reading: higher = stronger binding
# Target: RNA binding protein fox-1 homolog 2, RRM domain, GST-SBP tag (RBFOX2, Homo sapiens, UniProt O43251-10, residues 100-194)
# Notes: natural RNA segment, single round, ends assumed
# Constant ends, left off below: GGGAGUUCUACAGUCCGACGAUC … UGGAAUUCUCGGGUGCCAA
# Target sequence (chain): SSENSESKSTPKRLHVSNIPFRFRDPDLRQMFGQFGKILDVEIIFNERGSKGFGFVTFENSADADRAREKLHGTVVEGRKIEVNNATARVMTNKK
Sequence,RBNS enrichment (R)
UUCCCAGCUCUCCCCAGUGUCCAGAUCCUCUCUGGAAGAGACUAUAAAAUAAACGUGGGUGCCAGGGCCUGCCUGUCUGCUUCAUUAUCCUUUGGGUGGGCAUAGGGGGA,0.672
CGGUGCUGCUGUUAAGACGUGAGUGCAUUUCACUUGGAAGAACCCAUUGUACAAAGUUCAAGGCUAAGAGUUCUGAAUUCUGGCGUCAGCUUCCUCAGGAUUUUCUUCAG,0.262
GAGGUGAUGCUGGCUACAGCCCUGGCAGCCCAUGGCAACUCAAAGUGCCUUCCAAACCAAACUGCCCCUCAUGAGGUUAGGGUCCCCCACCCUCCACCUGCCCAGAGGCC,0.221
CUCCUGUUCCCGCCUCAGUCAGGUGCAGACAAGUGGGCGGUGUCCAUUAAAGAGCAGACUCAGCGUUGCUCUUGGCUGUUCUUUCCUGCCGUGCAGGCUCUGGUCACCCC,0.297
ACAUUUCUUCUCCCAACUAAAAAUGUAAGAAGAAAAAAAAAUUUUUUUCUUUUUCUCUUUUUUUUUUUUUUUGUGGUACAGAAGUUUUUUGUUUGGUUAUUUGUUUGUUU,1.23
CGGCAGCCCUGGCGGAGGGAUGCAGGUGGGCCGGAAGAUCCCACGAUUCCGAUCGACUGCCAAGCAGCAGCCGCUGCCAGGGGCUGCGUCUGACAUCCUGACCUCCUGGA,0.255
AUUAAUUAAGAGGUUGAAAAGAAGUGCAGUGUAAGAAAACCCAGCAUUUUAAUUACUUGCAAAUUAAGUUACCACAGACUCUGUAGUGUGUAAAUGUUGACAAGGAAUUG,0.514
AGAAGCCCUUUGCCAUCGCCAAGGAGUAGGGCACAGGGACAUCUUUCUUUGAGUGACCGUCUGUGCAGGCCCUGUAGUCCGCCACAGGGCUCUGAGCUGCACUGGCCCCG,0.193

# Set 4 — method: RNA Bind-n-Seq; molecule type: RNA; matrix: in vitro; tested at: not given; baseline: input RNA pool; reading: higher = stronger binding
# Target: RING finger protein unkempt homolog, zinc fingers 1-6, GST-SBP tag (UNK, Homo sapiens, UniProt Q9C0B0, residues 30-357)
# Notes: RNA with constant flanks, human-mouse chimeric sites, ends assumed
# Constant ends, left off below: GGGAGUUCUACAGUCCGACGAUC … CAACAGAGGAUUGAGCAUCA
# Target sequence (chain): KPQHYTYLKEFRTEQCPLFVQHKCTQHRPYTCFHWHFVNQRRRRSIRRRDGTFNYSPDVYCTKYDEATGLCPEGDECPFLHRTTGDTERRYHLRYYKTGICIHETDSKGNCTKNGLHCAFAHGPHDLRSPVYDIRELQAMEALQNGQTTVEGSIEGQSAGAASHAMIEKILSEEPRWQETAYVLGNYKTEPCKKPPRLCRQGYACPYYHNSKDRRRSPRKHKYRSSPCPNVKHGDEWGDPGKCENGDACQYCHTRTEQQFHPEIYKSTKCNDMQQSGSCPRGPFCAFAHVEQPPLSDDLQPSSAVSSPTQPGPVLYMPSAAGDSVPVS
Sequence,bound/input enrichment [ratio]
AUGGAACAUUUCGAUGCGUCACUCAGUACCUAUUUCAAGGCCUUCCUAGGCCCUCGAGAUACAAGAGUCAAAGGAUGGUUCCUCCUGGACAAUUACAUCCCUACGUUUGUCUGUUCUGUU,0.0763
AGUACUGCCCGUGCAAAAUUUUGCAACACCAAGCUCACAGCAGCAGCAUCUUAGUCACAGUAGGGUAGUUUUGGGGCUCUGUGGCCAGGGUUUUAUUCACAUGCAGGUUUGGAAAAUGUA,1.85
CCCUCCCGGGCCACCCAACCCCUCCCGGCUCCCCGCCGAGAUCCAGGUUUCUUCUUAUUUCAUAGCAAAUAAGAAAAAUGUUCUACGCACAUUUUGUCCUCAGUAAACGAGGGCCUCUGG,0.483
CGCUUGGAUGAGGCGGGUGUCACAGAUGAAGUGCUGGAUUCUGCCAUGCAAGCCUUCCUUCUGGAGGUCAUUGUUAAACAUGGGGAGCCGGCACCUUAUUUAUGUAACAAAGAUCCGUUU,0.0739
AGGAGGAGGUUAAAGGGUGAGAGUGGGAUGGAGGAUUGUGUCAUGGCUCUGGAGACACUGUUCAGUGUCCUGCUUUCUCUGUGCAGACUGAUGGCCCCUUACACGCCUUUUCUCACUGAG,0.129
UUCAAAGAAAAGGGCAGCUGUGUCAUUUCAUAAGUAACUCUGGGGGAUAAGUGGAAGGUUCUUUUGUUUAAUUUUCCCCCAAAUGAAACCAACAUGCGUGUUGAAGAACUGAGAAAAAAU,0.205
UUUCUACUGCAGCAAACGAUGCUAAGAAUUAAGGAUCCUAAGAAGUCCCUGGAUUUUUAUACGAGGGUUCUUGGAAUGACCCUCCUGCAGAAGCUUGAUUUUCCCAUUAUGAAGUUCUCG,0.0808
UUUGUUUUUGUAACUUAUGUAAAAGGUUCCCCCCCCCACUGUCAAAAAAAUAUGCAUGUAUAGUAAUUAGGACUUCAUUCCUCCAUGUUUUCUUCCCUUAUCUUACUGUCAUUGUCCUUA,2.54
